Results of several laboratories.
Numbered parts are unrelated; each lists some results of a single study.

Sample 1 — observed: enzyme activity; action: inhibitor; concentration: 0.5 µM; baseline: control
Target: Protein-tyrosine kinase 6 (PTK6, Homo sapiens, UniProt Q13882)
Sequence of UniProt Q13882 (whole entry, looked up): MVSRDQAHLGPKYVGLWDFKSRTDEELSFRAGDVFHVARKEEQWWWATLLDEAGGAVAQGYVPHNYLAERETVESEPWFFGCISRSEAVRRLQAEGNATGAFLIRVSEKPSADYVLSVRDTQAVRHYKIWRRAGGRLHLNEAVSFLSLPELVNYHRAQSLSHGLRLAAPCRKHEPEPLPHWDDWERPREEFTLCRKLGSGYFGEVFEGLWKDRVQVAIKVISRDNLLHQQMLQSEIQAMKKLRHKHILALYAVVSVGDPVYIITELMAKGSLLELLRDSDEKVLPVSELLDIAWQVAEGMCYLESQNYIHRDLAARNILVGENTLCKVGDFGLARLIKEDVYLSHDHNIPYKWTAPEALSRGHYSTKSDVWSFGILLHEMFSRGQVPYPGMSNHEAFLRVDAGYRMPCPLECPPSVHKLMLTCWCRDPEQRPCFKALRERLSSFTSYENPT
Compound	remaining activity
NC(=O)c1ccc(-c2nc(-c3ccc4c(c3)OCCO4)c(-c3ccccn3)[nH]2)cc1	91.3%
C[C@@H](N)[C@H]1CC[C@H](C(=O)Nc2ccncc2)CC1	86.3%
CC(C)n1cnc2c(Nc3cccc(Cl)c3)nc(NCCO)nc21	90.2%
NC(=O)c1cccc(-c2cc(Nc3ccc(OC(F)(F)F)cc3)ncn2)c1	94.5%
CNc1cc2c(Nc3cccc(Br)c3)ncnc2cn1	54.4%
COc1cc2c(Nc3ccc(Br)cc3F)ncnc2cc1OCC1CCN(C)CC1	7.28%
Nc1nc(Nc2ccc(S(N)(=O)=O)cc2)nn1C(=S)Nc1c(F)cccc1F	34.8%
O=C(O)/C=C/c1cc(Br)c(Br)c(Br)c1Br	95%
N#C/C(=C(/N)SC1C=CC=CC1)c1cccc(C(O)c2ccncc2)c1 (centres unmarked)	103%
O=C1NC(=O)/C(=C/c2ccc3c(c2)OC(F)(F)O3)S1	94.8%
N#CC(c1ccnc(NCCc2cccnc2)n1)c1nc2ccccc2s1 (centres unmarked)	46.5%
CCN(CC)CCCCN1c2ccccc2Oc2ccc(Cl)cc21	95%
c1cc(-c2cnn3cc(-c4ccc(OCCN5CCCCC5)cc4)cnc23)ccn1	37.2%
O=c1c(-c2ccc(F)cc2)c(-c2ccncc2)[nH]n1-c1ccc(Cl)cc1	57.5%
CCCCc1c(-c2ccc(O)cc2)[nH]c2nccnc12	29.7%
CC(C)(C)c1nc2c3cc[nH]c(=O)c3c3cc(F)ccc3c2[nH]1	88%
O=Nc1c(-c2c(O)[nH]c3ccccc23)[nH]c2ccccc12	97.2%
COc1cc2c(N3CCN(C(=O)Nc4ccc(OC(C)C)cc4)CC3)ncnc2cc1OCCCN1CCCCC1	92.9%
CC(C)N(CCC(=O)c1ccc2ccccc2c1)Cc1ccccc1	96.4%
O=C1c2ccccc2-c2nc3nnnn3nc21	111%
FC(F)(F)c1ccc(/C=C/c2nc(COc3ccc(CCCCn4ccnn4)cc3)co2)cc1	97.8%
O=C(c1ccccc1)c1ccc(N2CCOCC2)cc1O	98.2%

Sample 2 — cell line: HaCaT; concentration: 100 µM; time: 18 h
SMILES	viability [%]
[H]/N=C(/N)N[C@H]1[C@H](O)[C@@H](O)[C@H](O[C@@H]2O[C@@H](C)[C@](O)(C=O)[C@H]2O[C@@H]2O[C@@H](CO)[C@H](O)[C@@H](O)[C@@H]2NC)[C@@H](N/C(N)=N\[H])[C@@H]1O	111
Cc1cccc(CN2CCN(C(c3ccccc3)c3ccc(Cl)cc3)CC2)c1 (centres unmarked)	72.2
NS(=O)(=O)c1cc2c(cc1C(F)(F)F)NC(Cc1ccccc1)NS2(=O)=O (centres unmarked)	75.7
O=C(CO)[C@@H](O)[C@H](O)[C@H](O)CO	116
COC(=O)C1=C(C)NC(C)=C(C(=O)OC(C)C)C1c1cccc2nonc12 (centres unmarked)	48.8
CC1=C(/C=C/C(C)=C/C=C/C(C)=C/C(=O)O)C(C)(C)CCC1	70.7
O=c1cc(-c2ccc(O)cc2)oc2cc(O)cc(O)c12	77.4
C[C@H](Cc1cc2c(c(C(N)=O)c1)N(CCCO)CC2)NCCOc1ccccc1OCC(F)(F)F	117
CN(C)CCC(c1ccc(Cl)cc1)c1ccccn1 (centres unmarked)	107
Cc1c(Cl)cccc1Nc1ccccc1C(=O)O	95.3
O=C(Nc1ccccc1)c1ccccc1O	45.2
NCCc1c[nH]cn1	108
N=C(N)c1ccc(OCCCCCOc2ccc(C(=N)N)cc2)cc1	99.5
COc1cc2c(cc1OC)CC(=O)N(CCCN(C)C[C@H]1Cc3cc(OC)c(OC)cc31)CC2	113

Sample 3 — observed: ligand displacement; concentration: 10 µM
Target: Muscarinic acetylcholine receptor M4 (CHRM4, Homo sapiens, UniProt P08173)
Sequence of UniProt P08173 (whole entry, looked up): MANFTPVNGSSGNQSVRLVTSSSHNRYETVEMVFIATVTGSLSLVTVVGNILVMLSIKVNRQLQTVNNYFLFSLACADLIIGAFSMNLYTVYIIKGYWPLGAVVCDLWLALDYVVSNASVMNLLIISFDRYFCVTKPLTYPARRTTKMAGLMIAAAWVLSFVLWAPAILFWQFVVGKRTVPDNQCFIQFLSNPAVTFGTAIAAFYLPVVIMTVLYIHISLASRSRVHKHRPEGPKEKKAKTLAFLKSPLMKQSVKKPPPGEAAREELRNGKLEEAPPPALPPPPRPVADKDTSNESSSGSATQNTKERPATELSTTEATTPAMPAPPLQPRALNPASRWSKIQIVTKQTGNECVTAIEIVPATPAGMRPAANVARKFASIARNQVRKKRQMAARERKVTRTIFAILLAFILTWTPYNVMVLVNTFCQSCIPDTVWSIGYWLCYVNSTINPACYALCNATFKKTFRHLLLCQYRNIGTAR
SMILES	inhibition [%]
CNC(=O)Nc1ccc2c(c1)CC[C@]21OC(=O)N(CC(=O)N(Cc2ccc(F)cc2)[C@@H](C)C(F)(F)F)C1=O	11.2
CCC(F)(F)c1cc(N2CCC(S(C)(=O)=O)CC2)nc2sc(C(N)=O)c(N)c12	13.3
O=S(=O)(NC1CCC(c2cc(F)ccc2F)(S(=O)(=O)c2ccc(Cl)cc2)CC1)C(F)(F)F (centres unmarked)	18.8
Cc1cc(Nc2nccc(C)n2)cc(-c2cnc([C@@]3(O)CC[C@H](C(=O)O)C(C)(C)C3)s2)c1	16.7
O=C(NS(=O)(=O)c1ccc(NCC2CCOCC2)c([N+](=O)[O-])c1)c1ccc(N2CCN(Cc3ccc(C(F)(F)F)cc3-c3ccc(Cl)cc3)CC2)cc1Oc1cnc2[nH]ccc2c1	-5.79
CCc1ccccc1C(=O)Nc1n[nH]c2c(C)c(F)c(C3C(C#N)=C(C)N(C)C(C)=C3C#N)cc12	8.27
Cc1ncc(-c2cc(Cl)ccc2F)cc1-n1c(=O)n(CC(N)=O)c2ccccc21	3.09
COc1cc(N[C@@H]2CCCC[C@]2(O)C(F)(F)F)ccc1F	-3.95
CS(=O)(=O)N1CCCC(NC(=O)[C@H](CCC2CCCCC2)NC(=O)c2ccc(CNC(=O)c3cnc4ccccn34)cc2)C1 (some centres unmarked)	-2.24
O=C1NC(c2ccccn2)Sc2ccccc21 (centres unmarked)	-4.7
COCCOc1nc(-c2ccc(Cl)nc2)nc2c1CN(C(=O)c1ncn3ccccc13)CC2	2
CC(=O)N1CCC(c2ccc(C(=O)NC3=NCCN3)cc2C(F)(F)F)CC1	19.9
N#CC1(c2ccccn2)CCN(Cc2cc(C(=O)N3CCCC3)c(=O)n3ccccc23)CC1	-8.87
COc1ccc2cc(OCC3(C(=O)O)CN(C(=O)c4ccc(F)cc4)C3)ccc2c1	-18.6

Sample 4 — species: mouse; matrix: microsomes or S9; concentration: 2 µM; time: 0.5 h
Structure (SMILES)	remaining compound [%]
N=C(NS(=O)(=O)c1ccccc1)c1ccccc1	77.2
COc1ccc(-c2noc(Cn3cnc4c(cnn4-c4ccc(Cl)cc4)c3=O)n2)cc1	81
COc1ccc(Cl)cc1NC(=O)c1[nH]c(C)c(C(C)=O)c1C	53.3
Cc1nc2ncc(-c3cccc(N(C)C)c3)cc2[nH]1	80.1
Cc1cc(C)nc(NC(N)=Nc2ccc(CC(=O)OC(C)C)cc2)n1	84
O=C(O)c1csc(CNC(=O)c2cc(N3CCNC3=O)ccc2Cl)n1	> 100
CCC[C@H](CCO)n1c(C#N)cc(Cl)c1Br	21.3
C=CCC(C)(NCc1ccccc1)c1ccccc1 (centres unmarked)	0.474
CC1CC(=O)N(c2cccc(Cl)c2)N=C1c1ccc(O)cc1 (centres unmarked)	6.73
Cc1ccsc1-c1cn(C(C(=O)N(C)C)c2ccccc2)nn1 (centres unmarked)	3.11
CCNC(=O)N1c2ccc(CC)cc2C(C)=CC1(C)C	0.137
CC(=O)N[C@@H]1CN(C(=O)c2nc3cc(C)ccn3c2F)C[C@H]1c1ccc(C)o1	65.5
Nc1c(C(=O)c2ccc[nH]2)cnn1-c1ccc(F)cc1	47.8
COCCCNC(=O)NCCc1c(C)nn(C)c1C	59
COc1ccc(-c2cc3cc(C)cc(C)c3o2)cc1OC	80.4

For quick reference, copied from above (sample 4):
Structure (SMILES)	remaining compound [%]
COc1ccc(Cl)cc1NC(=O)c1[nH]c(C)c(C(C)=O)c1C	53.3
Cc1nc2ncc(-c3cccc(N(C)C)c3)cc2[nH]1	80.1
Cc1cc(C)nc(NC(N)=Nc2ccc(CC(=O)OC(C)C)cc2)n1	84
O=C(O)c1csc(CNC(=O)c2cc(N3CCNC3=O)ccc2Cl)n1	> 100
